# Earlier results that unrelated publications cite.
# Compare with care: the assays were run in different laboratories. ± marks the error that the study gave.
Compound,test,system,conditions,how to read,measurement,value
CN1CCN(c2cc(-c3ccccc3CO)c(N(C)C(=O)C(C)(C)c3cc(C(F)(F)F)cc(C(F)(F)F)c3)cn2)CC1,,"healthy volunteers, plasma","oral, 450 mg, single dose, added: palonosetron 0.75 mg",,AUC(0-inf),7930 ng·h/mL
CC1(N(CC(=O)[O-])CC(=O)[O-])CN(CC(=O)[O-])CCN(CC(=O)[O-])C1.[Gd+3],,,,,log K(GdL),20.2
CCCC(CCC)C(=O)[O][Pt]([Cl])([Cl])[O]C(C)=O.N.N,shake flask,octanol/water,,,logP,0.17 ± 0.02
O=S(=O)(O)CCN(CCS(=O)(=O)O)c1ccc(/N=N/c2ccccc2)cc1,,water,10 µM,,pKa,2.2
O=P(O)(O)CN(CCN(CP(=O)(O)O)CP(=O)(O)O)CP(=O)(O)O.[175Yb+3],,bone,4 h,,tissue uptake,4.37 %ID/g
CC[C@H](C)[C@H](NC(=O)[C@H](Cc1c[nH]cn1)NC(=O)[C@H](CC(N)=O)NC(=O)[C@H](Cc1ccccc1)NC(=O)[C@H](Cc1ccc(O)cc1)NC(=O)[C@H](Cc1ccc(O)cc1)NC(=O)[C@@H](NC(=O)[C@H](CCCNC(=N)N)NC(=O)CNC(=O)[C@H](CO)NC(=O)[C@H](CO)NC(=O)[C@H](CCCNC(=N)N)NC(=O)[C@H](CC(N)=O)NC(=O)[C@H](CCSC)NC(=O)[C@H](CCCNC(=N)N)NC(=O)[C@H](CCCCN)NC(=O)[C@H](CCC(=O)O)NC(=O)[C@H](Cc1c[nH]c2ccccc12)NC(=O)CNC(=O)[C@@H]1CCCN1C(=O)[C@@H]1CCCN1C(=O)[C@H](CC(C)C)NC(=O)[C@@H](N)CCCCN)C(C)C)C(=O)N[C@H](C(=O)N[C@@H](CC(N)=O)C(=O)N[C@@H](C)C(=O)N[C@@H](CC(N)=O)C(=O)N[C@@H](CCC(N)=O)C(=O)N[C@@H](Cc1ccccc1)C(=O)N[C@@H](CCC(=O)O)C(=O)N[C@@H](CCCNC(=N)N)C(=O)N1CCC[C@H]1C(=O)N[C@@H](CO)C(=O)NCC(=O)O)[C@@H](C)O,protein folding,,"50 µM, pH 7",,melting temperature,49.2 ± 0.6 °C
COc1cc(F)c(C(C)C)cc1C1=C(CN2C(=O)O[C@H](c3cc(C(F)(F)F)cc(C(F)(F)F)c3)[C@@H]2C)CC(C)(C)CC1,,hamster,"intravenous, single dose",,Vd,0.99 to 1.11 L/kg
Cc1ccccc1-c1cc(N2CC[N+](C)([O-])CC2)ncc1NC(=O)C(C)(C)c1cc(C(F)(F)F)cc(C(F)(F)F)c1,,urine,"intravenous, concentration not given, dosed as palonosetron",relative to: dose,urinary excretion,11.5%
COc1cc(-c2cnn(C)c2)ccc1Nc1ncc2ccnc(N[C@@H](C)C(C)(C)C)c2n1,,human liver microsomes,,,intrinsic clearance,151 µL/min/mg protein
COC(=O)c1ccc(/C=N/NS(=O)(=O)c2ccc(OC)c(OC)c2)cc1,,,,,pKa,6.35
O=C([O-])CN1CCN(CC(=O)[O-])CCN(Cc2cccc(C(=O)[O-])n2)CCN(CC(=O)[O-])CC1.[Eu+3],,1 M HCl,298 K,,dissociation half-life,5.7 min
C=C[C@@H]1C[C@]1(NC(=O)[C@@H]1C[C@@H](Oc2cc(-c3ccccc3)nc3cc(OC)ccc23)CN1C(=O)[C@@H](NC(=O)OC(C)(C)C)C(C)(C)C)C(=O)NS(=O)(=O)C1CC1,,"rat, liver","oral, 20 mg/kg, 4 h",,concentration,5800 nM
CCN(CC)c1ccc(-c2cc3c(s2)c(C(=O)OC)cc(=O)n3C)cc1,,dichloromethane,10 µM,,excitation maximum,463 nm
Oc1ccc(O)c(CN(CCN(Cc2ccccn2)Cc2cc(O)ccc2O)Cc2ccccn2)c1.[Br-].[Br-].[Mn+2],,,concentration not given,,reduction potential Mn(III)/Mn(II),725 mV vs Ag/AgCl
N=S(=O)(c1ccccc1)N1CCCCC1 (stereo not shown),,sodium borate buffer,"24 h, pH 10",,recovery,100%
C=C[C@@H]1C[C@]1(NC(=O)[C@@H]1C[C@@H](Oc2nccc3c(OC)cccc23)CN1C(=O)[C@@H](NC(=O)OC(C)(C)C)C(C)(C)C)C(=O)NS(=O)(=O)C1CC1,,isolated perfused rabbit heart,10 µM,,heart rate change,-9%
C=CC(=O)Nc1cc(Nc2nccc(-c3cn(C)c4ccccc34)n2)c(OCC(F)(F)F)nc1N(C)CCN(C)C,,human,80 mg,,Cmax at steady state,108 nM
O=C1C2=C(CCN(Cc3ccccc3)C2)N2CCN=C2N1Cc1ccc(C(F)(F)F)cc1,,rats,"oral, 50 mg/kg",,Tmax,0.5 h
CCCCCCc1ccc(Oc2ccccc2C#N)c(O)c1,,mouse,40 mg/kg,,Cmax,280 ng/mL
CC(C)Sc1ccc(SC(C)C)c(O)c(=O)c1O,,,,,pKa2,> 12
COCCOCCOCCOCCC(=O)NCc1cc(CNC(=O)CCOCCOCCOCCOC)cc(-c2cc3cc4nc(c(OC)c5[nH]c(cc6nc(cc2[nH]3)CC6(C)C)cc5-c2cc(CNC(=O)CCOCCOCCOCCOC)cc(CNC(=O)CCOCCOCCOCCOC)c2)CC4(C)C)c1,,DMF,room temperature,,integrated Qy/B absorption ratio,0.53
CCN(CC)C(=S)c1ccc(-c2c3ccc(=[N+](C)C)cc-3sc3cc4c(cc23)C(C)(C)CCN4C)s1,,methanol,,,absorption maximum,597 nm
C=C[C@@H]1C[C@]1(NC(=O)[C@@H]1C[C@@H](Oc2ncc(OC)c3c(Cl)cccc23)CN1C(=O)[C@@H](NC(=O)OC(C)(C)C)C(C)(C)C)C(=O)NS(=O)(=O)C1CC1,,isolated perfused rabbit heart,10 µM,,heart rate change,-44%
Cc1ccccc1-c1cc(N2CC[N+](C)([O-])CC2)ncc1N(C)C(=O)C(C)(C)c1cc(C(F)(F)F)cc(C(F)(F)F)c1,,"healthy volunteers, plasma","oral, dose not given, netupitant-palonosetron, fed",,Cmax,147 ng/mL
C=C[C@@H]1C[C@]1(NC(=O)[C@@H]1C[C@@H](Oc2ncc(OC)c3ccccc23)CN1C(=O)[C@@H](NC(=O)OC(C)(C)C)C(C)(C)C)C(=O)NS(=O)(=O)C1CC1,,rat,"oral, 30 mg/kg",,oral bioavailability,19%
Cc1cc(NC2Cc3cc(F)c(F)cc3C2)n2nc(C(C)(F)F)nc2n1,,"mouse, plasma","oral, 20 mg/kg",,apparent half-life,2.5 h
COc1ccn2c(Nc3cc(F)cc(F)c3)c(-c3ccccn3)nc2c1,,,pH 7.4,,logD,3.6
Nc1ncnc2c1ncn2C1CC(O)C(COP(=O)(O)OP(=O)(O)C(F)P(=O)(O)O)O1 (mixture of isomers),measured: bisphosphonate leaving group,aqueous solution,measured experimentally,,pKa4,9
Cc1ccccc1-c1cc(N2CCNCC2)ncc1N(C)C(=O)C(C)(C)c1cc(C(F)(F)F)cc(C(F)(F)F)c1,,"healthy volunteers, plasma","oral, 450 mg, single dose, added: palonosetron 0.75 mg",,Tmax,19.7 h
Cc1cc(C#N)cc(C)c1Oc1nc(NC2CCN(Cc3ccc(S(N)(=O)=O)cc3)CC2)nc2ccsc12,,,pH 7.4,,solubility,< 1 µg/mL
CCCCCCC[C@@H](CC(=O)O)OC(=O)C[C@@H](CCCCCCC)O[C@@H]1O[C@@H](C)[C@H](O)[C@@H](O)[C@H]1O,,,pH 8,,minimum surface tension,27.4 ± 0.2 mN/m
